{"data": "Measured values of several laboratories", "note": "Numbered parts are unrelated; each lists some results of a single study. Values joined by “and” are separate records of one study, mostly repeats; a detail may differ.", "chain of UniProt P50750 (whole entry, looked up)": "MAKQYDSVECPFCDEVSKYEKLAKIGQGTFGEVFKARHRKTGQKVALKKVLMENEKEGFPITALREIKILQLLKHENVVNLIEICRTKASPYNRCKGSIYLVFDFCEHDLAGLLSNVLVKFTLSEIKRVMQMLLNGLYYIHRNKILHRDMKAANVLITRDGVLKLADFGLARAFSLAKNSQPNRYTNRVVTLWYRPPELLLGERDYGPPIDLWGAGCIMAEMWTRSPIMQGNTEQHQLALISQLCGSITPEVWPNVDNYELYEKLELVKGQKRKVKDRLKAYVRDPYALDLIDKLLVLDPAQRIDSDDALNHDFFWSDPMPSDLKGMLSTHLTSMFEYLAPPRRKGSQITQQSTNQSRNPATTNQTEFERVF"}
{"data": "Series 1", "target": "DNA polymerase theta, ATPase domain (POLQ, Homo sapiens, UniProt O75417)", "read-out": "enzyme activity", "mode": "inhibitor", "concentration": "77 µM", "reference": "untreated", "chain of UniProt O75417 (whole entry, unmodified, looked up)": "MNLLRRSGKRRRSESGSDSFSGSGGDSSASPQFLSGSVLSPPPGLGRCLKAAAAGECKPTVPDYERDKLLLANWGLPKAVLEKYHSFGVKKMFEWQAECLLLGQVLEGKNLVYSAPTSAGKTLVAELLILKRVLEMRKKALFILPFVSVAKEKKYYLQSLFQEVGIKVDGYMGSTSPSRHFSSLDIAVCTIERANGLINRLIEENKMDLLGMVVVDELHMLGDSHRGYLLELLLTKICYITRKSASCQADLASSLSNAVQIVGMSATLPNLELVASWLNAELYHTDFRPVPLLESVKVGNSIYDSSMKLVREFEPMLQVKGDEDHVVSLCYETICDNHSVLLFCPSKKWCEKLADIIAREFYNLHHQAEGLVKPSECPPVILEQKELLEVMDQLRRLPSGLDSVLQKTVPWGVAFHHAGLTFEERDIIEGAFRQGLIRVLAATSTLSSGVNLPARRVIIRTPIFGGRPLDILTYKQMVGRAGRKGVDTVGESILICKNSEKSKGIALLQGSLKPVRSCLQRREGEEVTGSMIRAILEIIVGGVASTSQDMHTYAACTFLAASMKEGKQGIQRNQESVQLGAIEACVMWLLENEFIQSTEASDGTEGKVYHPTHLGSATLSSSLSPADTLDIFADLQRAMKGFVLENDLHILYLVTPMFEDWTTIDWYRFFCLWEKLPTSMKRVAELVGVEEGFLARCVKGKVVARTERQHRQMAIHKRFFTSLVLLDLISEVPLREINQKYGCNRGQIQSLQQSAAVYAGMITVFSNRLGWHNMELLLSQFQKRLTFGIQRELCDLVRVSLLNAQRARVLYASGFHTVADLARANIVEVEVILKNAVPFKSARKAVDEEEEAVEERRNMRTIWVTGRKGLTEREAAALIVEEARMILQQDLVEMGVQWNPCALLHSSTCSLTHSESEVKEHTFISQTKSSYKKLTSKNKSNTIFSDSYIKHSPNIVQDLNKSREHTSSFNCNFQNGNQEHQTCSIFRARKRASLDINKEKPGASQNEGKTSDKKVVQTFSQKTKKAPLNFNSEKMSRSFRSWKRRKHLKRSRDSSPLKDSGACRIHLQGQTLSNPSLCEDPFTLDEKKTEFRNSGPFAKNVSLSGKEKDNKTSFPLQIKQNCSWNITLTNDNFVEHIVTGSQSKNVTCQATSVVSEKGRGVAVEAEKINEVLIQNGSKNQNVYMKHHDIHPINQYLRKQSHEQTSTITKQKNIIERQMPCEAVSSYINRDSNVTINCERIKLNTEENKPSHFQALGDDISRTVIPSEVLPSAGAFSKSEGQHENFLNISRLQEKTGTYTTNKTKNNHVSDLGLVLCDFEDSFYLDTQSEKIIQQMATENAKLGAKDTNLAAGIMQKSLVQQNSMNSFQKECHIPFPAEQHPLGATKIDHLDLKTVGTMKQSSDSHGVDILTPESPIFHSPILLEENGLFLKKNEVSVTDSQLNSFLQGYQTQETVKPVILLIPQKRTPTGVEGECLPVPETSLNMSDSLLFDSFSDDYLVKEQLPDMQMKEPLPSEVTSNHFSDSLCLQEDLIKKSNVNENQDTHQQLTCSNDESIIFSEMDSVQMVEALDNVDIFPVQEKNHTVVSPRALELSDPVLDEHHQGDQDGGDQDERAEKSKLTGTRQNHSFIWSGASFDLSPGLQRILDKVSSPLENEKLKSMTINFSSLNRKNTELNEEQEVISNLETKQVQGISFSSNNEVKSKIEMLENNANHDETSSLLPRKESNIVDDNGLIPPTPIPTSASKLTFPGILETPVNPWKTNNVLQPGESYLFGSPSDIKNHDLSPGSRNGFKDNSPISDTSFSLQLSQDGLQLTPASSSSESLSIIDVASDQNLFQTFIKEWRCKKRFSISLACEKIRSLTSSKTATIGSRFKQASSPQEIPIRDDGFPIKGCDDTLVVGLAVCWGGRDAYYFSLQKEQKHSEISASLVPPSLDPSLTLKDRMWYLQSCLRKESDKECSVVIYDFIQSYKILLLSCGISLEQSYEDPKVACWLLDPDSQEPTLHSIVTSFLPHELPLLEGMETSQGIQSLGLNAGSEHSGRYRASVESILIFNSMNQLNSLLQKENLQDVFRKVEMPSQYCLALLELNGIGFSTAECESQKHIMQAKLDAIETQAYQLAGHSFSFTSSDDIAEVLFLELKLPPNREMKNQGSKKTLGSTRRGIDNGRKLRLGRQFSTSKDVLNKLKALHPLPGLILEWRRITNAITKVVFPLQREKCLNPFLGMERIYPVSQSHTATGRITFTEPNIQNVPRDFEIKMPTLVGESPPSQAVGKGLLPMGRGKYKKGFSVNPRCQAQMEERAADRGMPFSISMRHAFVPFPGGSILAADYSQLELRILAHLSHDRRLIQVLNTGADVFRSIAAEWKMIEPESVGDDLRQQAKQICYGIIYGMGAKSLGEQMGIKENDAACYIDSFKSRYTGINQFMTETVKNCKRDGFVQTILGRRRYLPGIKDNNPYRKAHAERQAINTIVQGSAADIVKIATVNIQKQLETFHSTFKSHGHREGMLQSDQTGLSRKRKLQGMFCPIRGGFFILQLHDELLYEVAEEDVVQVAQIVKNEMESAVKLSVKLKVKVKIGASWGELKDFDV"}
{"SMILES": "N[C@@H](Cc1ccc(F)cc1)C(=O)O", "remaining activity": "101%"}
{"SMILES": "CC(C)(F)C[C@H](N[C@@H](c1ccc(-c2ccc(S(C)(=O)=O)cc2)cc1)C(F)(F)F)C(=O)NC1(C#N)CC1", "remaining activity": "87.4%"}
{"SMILES": "Cc1nc(-c2ccc(OCC(C)C)c(C#N)c2)sc1C(=O)O", "remaining activity": "87.4%"}
{"SMILES": "CC[C@]12CCCN3CCc4c(n(c5ccccc45)[C@](O)(C(=O)OC)C1)[C@@H]32", "remaining activity": "93.2%"}
{"SMILES": "O=[N+]([O-])c1cccc2cn[nH]c12", "remaining activity": "103%"}
{"SMILES": "Oc1ncnc2[nH]ncc12", "remaining activity": "91.5% and 91.4%"}
{"SMILES": "CCN(CC)CCNC(=O)c1cc(Cl)c(N)cc1OC", "remaining activity": "98% and 102%"}
{"SMILES": "COc1cc(C=O)ccc1O", "remaining activity": "99.7%"}
{"SMILES": "COc1nc(C)cnc1NS(=O)(=O)c1cccnc1-c1ccc(-c2nnco2)cc1", "remaining activity": "100%"}
{"data": "Series 2", "Structure (SMILES)": "O=C(NCc1ncc(C(F)(F)F)cc1Cl)c1ccc2c(c1)C1(CCS(=O)(=O)CC1)[C@H](C1CC1)N2S(=O)(=O)c1ccc(F)cc1", "method": "competition with immobilised ligand", "concentration": "1 µM"}
{"target": "CIT (Homo sapiens, UniProt O14578)", "read-out": "cell-free assay", "remaining binding": "100%"}
{"target": "STK3 (Homo sapiens, UniProt Q13188)", "read-out": "cell-free assay", "remaining binding": "100%"}
{"target": "TNK1 (Homo sapiens, UniProt Q13470)", "read-out": "cell-free assay", "remaining binding": "88%"}
{"target": "DYRK1A (Homo sapiens, UniProt Q13627)", "read-out": "cell-free assay", "remaining binding": "88%"}
{"target": "Receptor-type tyrosine-protein kinase FLT3, autoinhibited (FLT3, Homo sapiens, UniProt P36888)", "read-out": "cell-free assay", "remaining binding": "95%"}
{"target": "TNNI3K (Homo sapiens, UniProt Q59H18)", "read-out": "cell-free assay", "remaining binding": "100%"}
{"target": "GAK (Homo sapiens, UniProt O14976)", "read-out": "cell-free assay", "remaining binding": "97%"}
{"target": "LRRK2 (Homo sapiens, UniProt Q5S007)", "read-out": "cell-free assay", "remaining binding": "82%"}
{"target": "CDK9 (Homo sapiens, UniProt P50750)", "read-out": "cell-free assay", "remaining binding": "100%"}
{"target": "AXL (Homo sapiens, UniProt P30530)", "read-out": "cell-free assay", "remaining binding": "100%"}
{"target": "RAF1 (Homo sapiens, UniProt P04049)", "read-out": "cell-free assay", "remaining binding": "100%"}
{"target": "TGFBR2 (Homo sapiens, UniProt P37173)", "read-out": "cell-free assay", "remaining binding": "100%"}
{"target": "NEK7 (Homo sapiens, UniProt Q8TDX7)", "read-out": "cell-free assay", "remaining binding": "100%"}
{"target": "LTK (Homo sapiens, UniProt P29376)", "read-out": "cell-free assay", "remaining binding": "87%"}
{"target": "Cyclin-dependent kinase 4, with cyclin D1 (CDK4, Homo sapiens, UniProt P11802)", "read-out": "cell-free assay", "remaining binding": "93%"}
{"target": "FLT3 (Homo sapiens, UniProt P36888, F691L/ITD)", "read-out": "cell-free assay", "remaining binding": "76%"}
{"target": "MAP4K4 (Homo sapiens, UniProt O95819)", "read-out": "cell-free assay", "remaining binding": "91%"}
{"target": "PIK3CA (Homo sapiens, UniProt P42336, C420R)", "read-out": "cell-free assay", "remaining binding": "77%"}
{"target": "CDK11A (Homo sapiens, UniProt Q9UQ88)", "read-out": "binding", "remaining binding": "100%"}
{"target": "Ribosomal protein S6 kinase alpha-4, N-terminal kinase domain (RPS6KA4, Homo sapiens, UniProt O75676)", "read-out": "cell-free assay", "remaining binding": "100%"}
{"data": "Series 3", "target": "Eukaryotic initiation factor 4A-III (Homo sapiens, UniProt P38919)", "read-out": "RNA clamping", "method": "fluorescence polarization", "concentration": "concentration not given", "setting": "mean of two replicates", "together with": "FAM-labelled poly r(AG)8 RNA", "chain of UniProt P38919 (whole entry, looked up)": "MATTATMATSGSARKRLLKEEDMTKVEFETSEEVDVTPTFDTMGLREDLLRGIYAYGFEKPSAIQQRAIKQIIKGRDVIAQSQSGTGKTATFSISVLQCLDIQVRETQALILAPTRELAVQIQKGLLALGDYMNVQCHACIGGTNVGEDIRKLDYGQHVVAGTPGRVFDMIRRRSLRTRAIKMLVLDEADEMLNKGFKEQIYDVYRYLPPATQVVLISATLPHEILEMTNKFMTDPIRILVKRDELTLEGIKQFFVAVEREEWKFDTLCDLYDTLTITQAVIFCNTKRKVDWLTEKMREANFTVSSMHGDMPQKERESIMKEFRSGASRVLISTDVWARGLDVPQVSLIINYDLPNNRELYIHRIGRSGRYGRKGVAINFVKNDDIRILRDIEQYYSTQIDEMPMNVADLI"}
{"SMILES": "COC(=O)[C@@H]1[C@@H](c2ccccc2)[C@]2(c3ccc(OC)cc3)Oc3cc(OC)cc(OC)c3[C@@]23NC(C(F)(F)F)=N[C@@]13O", "fluorescence polarization change [mP]": 13.2}
{"SMILES": "COC(=O)[C@@H]1[C@@H](c2ccccc2)[C@]2(c3ccc(OC)cc3)Oc3cc(OC)cc(OC)c3[C@@]23OC(c2ccc(OCc4ccccc4)cc2)=N[C@@]13O", "fluorescence polarization change [mP]": 3}
{"SMILES": "COc1ccc([C@@]23Oc4cc(OC)cc(OC)c4[C@]2(O)[C@H](O)[C@H](C(=O)c2ccco2)[C@H]3c2ccc(Br)cc2)cc1", "fluorescence polarization change [mP]": 2.5}
{"SMILES": "COC(=O)[C@H]1[C@@H](O)[C@@]2(O)c3c(F)cccc3N(C)[C@@]2(c2ccc(OC)cc2)[C@@H]1c1ccccc1", "fluorescence polarization change [mP]": 5.6}
{"SMILES": "C#CCCC1(CCOc2ccc([C@@H]3[C@@H](C(=O)c4ccco4)[C@@H](O)[C@@]4(O)c5c(OC)cc(OC)cc5O[C@@]34c3ccc(OC)cc3)cc2)N=N1", "fluorescence polarization change [mP]": -3.3}
{"SMILES": "COc1ccc([C@@]23Oc4cc(OC)cc(OC)c4[C@]2(O)[C@H](O)[C@H](CN(C)C)[C@H]3c2ccccc2)cc1", "fluorescence polarization change [mP]": 45.3}
{"SMILES": "COc1ccc([C@]23Oc4cc(OC)cc(OC)c4[C@](O)([C@H]2O)[C@@H](C(=O)N(C)OC)[C@@H]3c2ccccc2)cc1", "fluorescence polarization change [mP]": -0.6}
{"SMILES": "COc1ccc([C@@]23Oc4cc(O)cc(OC)c4[C@]2(O)[C@H](O)[C@H](C(=O)c2ccco2)[C@H]3c2ccccc2)cc1", "fluorescence polarization change [mP]": 9.9}
{"SMILES": "COC(=O)[C@@H]1[C@@H](c2ccccc2)[C@]2(c3ccc(OC)cc3)Oc3cc(OC)cc(OC)c3[C@@]23NC(c2ccc(Br)cc2)=N[C@@]13O", "fluorescence polarization change [mP]": 4.8}
{"SMILES": "COCCN[C@@]12/C(=N/O)C[C@@H](c3ccccc3)[C@]1(c1ccc(OC)cc1)Oc1cc(OC)cc(OC)c12", "fluorescence polarization change [mP]": 4.1}
{"SMILES": "COC(=O)[C@H]1C(=O)[C@@]2(NCc3ccccc3)c3c(OC)cc(OC)cc3O[C@@]2(c2ccc(OC)cc2)[C@@H]1c1ccccc1", "fluorescence polarization change [mP]": 2.6}
{"SMILES": "COC(=O)[C@@H]1[C@@H](c2ccccc2)[C@]2(c3ccc(OC)cc3)Oc3cc(OC)cc(OC)c3[C@@]23NC(c2ccc(OC)cc2)=N[C@@]13O", "fluorescence polarization change [mP]": 8.4}
{"SMILES": "COc1ccc([C@]23[C@@H](c4ccccc4)C[C@@H](O)[C@@]2(O)c2c(F)cccc2N3C)cc1", "fluorescence polarization change [mP]": 5.6}
{"SMILES": "COC(=O)/C=C/Cn1c(-c2ccccc2)nc2c(c1=O)[C@@H](c1ccccc1)[C@]1(c3ccc(OC)cc3)Oc3cc(OC)cc(OC)c3[C@]21O", "fluorescence polarization change [mP]": 4.3}
{"data": "Series 4", "target": "Tyrosine-protein kinase ZAP-70 (ZAP70, Homo sapiens, UniProt P43403)", "read-out": "enzyme activity", "mode": "inhibitor", "concentration": "0.5 µM", "reference": "control", "chain of UniProt P43403 (whole entry, looked up)": "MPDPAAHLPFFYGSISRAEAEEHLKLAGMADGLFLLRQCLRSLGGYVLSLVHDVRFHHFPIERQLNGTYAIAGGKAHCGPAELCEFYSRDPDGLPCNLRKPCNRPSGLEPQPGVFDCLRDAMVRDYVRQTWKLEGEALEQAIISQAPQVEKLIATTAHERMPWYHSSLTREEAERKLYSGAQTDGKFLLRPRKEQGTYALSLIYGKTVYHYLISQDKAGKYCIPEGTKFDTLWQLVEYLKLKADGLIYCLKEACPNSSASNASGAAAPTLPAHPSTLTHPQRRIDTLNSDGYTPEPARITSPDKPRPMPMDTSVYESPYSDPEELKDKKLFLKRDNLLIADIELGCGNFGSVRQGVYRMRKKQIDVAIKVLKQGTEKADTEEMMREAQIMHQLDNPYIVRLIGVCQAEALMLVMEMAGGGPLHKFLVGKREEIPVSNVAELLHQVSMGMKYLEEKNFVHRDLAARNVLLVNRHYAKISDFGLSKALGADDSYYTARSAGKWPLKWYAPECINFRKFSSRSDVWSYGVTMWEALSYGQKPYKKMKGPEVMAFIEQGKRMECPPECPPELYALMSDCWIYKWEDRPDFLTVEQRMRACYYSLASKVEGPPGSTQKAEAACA"}
{"SMILES": "COc1cc2ncc(-c3ccccc3)nc2cc1OC", "remaining activity [%]": 98.6}
{"SMILES": "CS(=O)(=O)CCNCc1ccc(-c2ccc3ncnc(Nc4ccc(OCc5cccc(F)c5)c(Cl)c4)c3c2)o1", "remaining activity [%]": 92.5}
{"SMILES": "CC(C)c1nn(-c2c(Cl)cccc2Cl)c2nc(Cc3ccc(OCCO)cc3)[nH]c(=O)c12", "remaining activity [%]": 103}
{"SMILES": "O=c1cc(N2CCOCC2)oc2c1ccc1ccccc12", "remaining activity [%]": 103}
{"SMILES": "Cc1nc(Nc2ncc(C(=O)Nc3c(C)cccc3Cl)s2)cc(N2CCN(CCO)CC2)n1", "remaining activity [%]": 117}
{"SMILES": "CCC(=O)Nc1ccc2ncnc(Nc3cccc(Br)c3)c2c1", "remaining activity [%]": 113}
{"SMILES": "CC(C)[C@H](CO)Nc1nc(Nc2cccc(Cl)c2)c2ncn(C(C)C)c2n1", "remaining activity [%]": 99.7}
{"SMILES": "COc1ccc(-c2cnc3c(-c4ccsc4)cnn3c2)cc1", "remaining activity [%]": 93.7}
{"SMILES": "Cc1ccc(NC(=O)c2ccc(CN3CCN(C)CC3)cc2)cc1Nc1nccc(-c2cccnc2)n1", "remaining activity [%]": 101}
{"SMILES": "COc1cc2ncnc(N3CCN(C(=O)Nc4ccc(Oc5ccccc5)cc4)CC3)c2cc1OC", "remaining activity [%]": 100}
{"SMILES": "Cn1cnc2cc3c(Nc4cccc(Br)c4)ncnc3cc21", "remaining activity [%]": 110}
{"SMILES": "Cn1cc(/C=C2\\C(=O)Nc3ccc(S(N)(=O)=O)cc32)c2ccccc21", "remaining activity [%]": 102}
{"SMILES": "COc1ccc(Cl)cc1NC(=O)Nc1cc(C)nc2ccccc12", "remaining activity [%]": 94.9}
{"SMILES": "C[S+]([O-])c1ccc(-c2nc(-c3ccncc3)c(-c3ccc(F)cc3)[nH]2)cc1 (centres unmarked)", "remaining activity [%]": 94.4}
{"SMILES": "O=C1NC(=O)/C(=C/c2ccc3nccnc3c2)S1", "remaining activity [%]": 92.4}
{"SMILES": "O=C(Nc1ccc(Cl)cc1)c1ccccc1NCc1ccncc1", "remaining activity [%]": 103}
{"SMILES": "CN(C)CCCn1cc(C2=C(c3c[nH]c4ccccc34)C(=O)NC2=O)c2ccccc21", "remaining activity [%]": 93}
{"SMILES": "COc1cc2ncnc(Nc3ccc(OCc4ccccc4)cc3)c2cc1OC", "remaining activity [%]": 87.6}
{"SMILES": "Nc1[nH]nc2nnc(-c3c(-c4ccccc4)nn4ccccc34)cc12", "remaining activity [%]": 90.1}
{"SMILES": "CCN1/C(=C/C(C)=O)Sc2ccc(OC)cc21", "remaining activity [%]": 103}
{"SMILES": "CC(=O)O/N=C1/C(c2c(O)[nH]c3cc(Br)ccc23)=Nc2ccccc21", "remaining activity [%]": 102}
{"SMILES": "CCOc1cc2ncnc(Nc3cccc(Br)c3)c2cc1OCC", "remaining activity [%]": 105}
{"note": "Excerpt of the above (series 3):"}
{"SMILES": "COC(=O)[C@H]1C(=O)[C@@]2(NCc3ccccc3)c3c(OC)cc(OC)cc3O[C@@]2(c2ccc(OC)cc2)[C@@H]1c1ccccc1", "fluorescence polarization change [mP]": 2.6}
{"SMILES": "COC(=O)[C@H]1[C@@H](O)[C@@]2(O)c3c(F)cccc3N(C)[C@@]2(c2ccc(OC)cc2)[C@@H]1c1ccccc1", "fluorescence polarization change [mP]": 5.6}
{"SMILES": "COc1ccc([C@@]23Oc4cc(OC)cc(OC)c4[C@]2(O)[C@H](O)[C@H](C(=O)c2ccco2)[C@H]3c2ccc(Br)cc2)cc1", "fluorescence polarization change [mP]": 2.5}
{"SMILES": "COC(=O)[C@@H]1[C@@H](c2ccccc2)[C@]2(c3ccc(OC)cc3)Oc3cc(OC)cc(OC)c3[C@@]23NC(c2ccc(OC)cc2)=N[C@@]13O", "fluorescence polarization change [mP]": 8.4}
{"SMILES": "C#CCCC1(CCOc2ccc([C@@H]3[C@@H](C(=O)c4ccco4)[C@@H](O)[C@@]4(O)c5c(OC)cc(OC)cc5O[C@@]34c3ccc(OC)cc3)cc2)N=N1", "fluorescence polarization change [mP]": -3.3}
{"SMILES": "COCCN[C@@]12/C(=N/O)C[C@@H](c3ccccc3)[C@]1(c1ccc(OC)cc1)Oc1cc(OC)cc(OC)c12", "fluorescence polarization change [mP]": 4.1}
